Measured values pooled from the literature.
Lines come from different studies, so protocols differ. “And” joins repeats or separate records; there may be more than shown. ± marks the error that the study gave.

Compound	tested on	test	system	conditions	quantity	value
CC(C)[C@@H]1NC(=O)CNC(=O)[C@H](CC(N)=O)NC(=O)[C@H](CCCNC(=N)N)NC(=O)[C@H](Cc2ccc(O)cc2)NC(=O)[C@H](C(C)C)NC(=O)[C@@H](NC(=O)[C@@H](NC(=O)[C@H](CC(N)=O)NC(=O)[C@H](Cc2c[nH]c3ccccc23)NC(=O)[C@H](C)NC(=O)[C@H](Cc2ccccc2)NC(=O)CNC(=O)[C@H](CCCCN)NC(=O)[C@H](Cc2ccccc2)NC(=O)[C@H](Cc2ccccc2)NC(=O)[C@H](CCCCN)NC(=O)OCC2c3ccccc3-c3ccccc32)C(C)C)CSSC[C@@H](C(=O)N[C@@H](Cc2c[nH]cn2)C(=O)N[C@@H](CCCNC(=N)N)C(=O)N[C@@H](CCCNC(=N)N)C(=O)N[C@@H](C)C(=O)N[C@@H](CC(N)=O)C(N)=O)NC(=O)[C@H](C(C)C)NC(=O)[C@H](CCCNC(=N)N)NC1=O	–	–	ICR mice, blood	intraductal mammary, 10 mg/kg, day 5	mean platelet volume	6.93 ± 0.18 fL
CC(=O)NCCCC[C@@H]1NC(=O)[C@H](Cc2c[nH]c3c(C)cccc23)NC(=O)[C@H]([C@@H](C)O)NC(=O)[C@H](CC(N)=O)NC(=O)[C@@H](NC(C)=O)C(C)(C)SSC(C)(C)[C@@H](C(=O)N[C@@H](Cc2ccc(OCCN)cc2)C(=O)N[C@@H](Cc2ccc3ccccc3c2)C(=O)NC2(C(=O)N[C@@H](CCC(=O)O)C(=O)N[C@@H](CC(N)=O)C(=O)N[C@@H](Cc3cccnc3)C(=O)N(C)CC(N)=O)CCOCC2)NC1=O	–	–	human	oral, 300 mg multiple doses, day 10	apparent clearance CL/F	6100 ± 2100 L/h
Cc1ccc(OCCN(C)C)cc1C(=O)N[C@H](C)c1cc(-c2ccc(CNC3CCCC3)s2)nc2ccccc12	Vero E6	–	–	7.812 µM	viability	103% and 100%
CCCCCCCCCCCCCCCC(=O)N[C@@H](CCC(=O)NCCOCCOCCC(=O)NCCOCCOCCC(=O)NCCCC[C@H](NC(=O)[C@H](CC(=O)O)NC(=O)[C@H](CC(C)C)NC(=O)[C@H](Cc1ccc(O)cc1)NC(=O)[C@H](CCCCN)NC(=O)[C@H](CO)NC(=O)[C@H](Cc1ccc(O)cc1)NC(=O)[C@H](CC(=O)O)NC(=O)[C@H](CO)NC(=O)[C@@H](NC(=O)[C@H](Cc1ccccc1)NC(=O)[C@@H](NC(=O)CNC(=O)[C@H](CCC(N)=O)NC(=O)[C@@H](CO)NC(=O)[C@@H](N)Cc1c[nH]cn1)[C@@H](C)O)[C@@H](C)O)C(=O)N[C@@H](CCCNC(=N)N)C(=O)N[C@@H](CCCNC(=N)N)C(=O)N[C@@H](C)C(=O)N[C@@H](CCC(N)=O)C(=O)N[C@@H](CC(=O)O)C(=O)N[C@@H](Cc1ccccc1)C(=O)N[C@H](C(=O)N[C@@H](CCC(N)=O)C(=O)N[C@@H](Cc1c[nH]c2ccccc12)C(=O)N[C@@H](CC(C)C)C(=O)N[C@@H](CC(C)C)C(=O)N[C@@H](CC(N)=O)C(=O)N[C@H](C(=O)NCC(=O)NCC(=O)N1CCC[C@H]1C(=O)N[C@@H](CO)C(=O)N[C@@H](CO)C(=O)NCC(=O)N[C@@H](C)C(=O)N1CCC[C@H]1C(=O)N1CCC[C@H]1C(=O)N1CCC[C@H]1C(=O)N[C@@H](CO)C(N)=O)[C@@H](C)O)C(C)C)C(=O)O	–	–	rhesus monkey, plasma	intravenous, 15.3 µg/kg, single dose	AUC(0-inf)	290 ng·h/mL
CCc1nn(C)c2nc(-c3ccc(C(=O)O)cc3)nc(NCc3ccccc3)c12	–	–	male CD-1 mouse, plasma	intravenous, 1 mg/kg, 30 min	concentration	336 ng/mL
O=C1NC2(CC2)COc2ncc(F)cc2[C@H]2COCCN2c2ccn3ncc1c3n2	–	–	Sprague-Dawley rat, female, adrenals	oral, 5 mg/kg/day, 4 weeks	organ weight	0.076 ± 0.011 g
CSCC[C@@H]1NC(=O)[C@H](C(C)C)NC(=O)[C@H](CCCNC(=N)N)NC(=O)[C@@H]2CCCN2C(=O)CNC(=O)[C@@H](NC(=O)CNC(=O)[C@H](CO)NC(=O)CNC(=O)[C@H](CO)NC(=S)Nc2ccc(C[C@H]3CN(CC(=O)O)CCN(CC(=O)O)CCN3CC(=O)O)cc2)CSSC[C@@H](C(N)=O)NC(=O)[C@@H]2CCCN2C(=O)CNC(=O)[C@H](CCC(=O)O)NC(=O)[C@H](CC(=O)O)NC(=O)[C@H](CC(=O)O)NC(=O)CNC(=O)[C@H](CC(C)C)NC(=O)[C@H](Cc2c[nH]cn2)NC(=O)[C@H](CC(C)C)NC(=O)CNC(=O)[C@H](Cc2c[nH]cn2)NC1=O [copper-64 labelled]	–	SE-HPLC	rat serum	concentration not given, 1 h, 37 °C	albumin-bound radioactivity	3.3%
C[C@@H](O)[C@H](NC(=O)[C@H](Cc1c[nH]c2ccccc12)NC(=O)[C@H](CCCNC(=N)N)NC(=O)[C@H](Cc1c[nH]c2ccccc12)NC(=O)[C@H](CCCNC(=N)N)NC(=O)CNC(=O)[C@@H](NC(=O)[C@H](CCCNC(=N)N)NC(=O)[C@H](CCCNC(=N)N)NC(=O)[C@H](CC(N)=O)NC(=O)[C@H](Cc1c[nH]c2ccccc12)NC(=O)[C@H](CCCNC(=N)N)NC(=O)[C@H](Cc1c[nH]c2ccccc12)NC(=O)c1ccccc1)[C@@H](C)O)C(=O)NCC(=O)N1CCC[C@H]1C(N)=O	–	circular dichroism	phosphate buffer	30 µM, pH 6.5	melting temperature	31.7 °C
CC[C@H](C)[C@H](NC(=O)CNC(=O)[C@H](CC(C)C)NC(=O)[C@H](Cc1ccccc1)NC(=O)CN)C(=O)N[C@@H](CC(C)C)C(=O)N[C@@H](Cc1ccccc1)C(=O)N[C@@H](Cc1c[nH]cn1)C(=O)NCC(=O)N[C@H](C(=O)N[C@@H](Cc1c[nH]cn1)C(=O)N[C@@H](Cc1c[nH]cn1)C(=O)NCC(=O)N[C@@H](CCCNC(=N)N)C(=O)N[C@@H](CCCCN)C(=O)N[C@@H](CCCCN)C(=O)N[C@@H](C)C(=O)N[C@@H](CC(C)C)C(=O)N[C@@H](Cc1c[nH]cn1)C(=O)N[C@@H](CCSC)C(=O)N[C@@H](CC(N)=O)C(=O)N[C@@H](CO)C(=O)N[C@@H](CCC(=O)O)C(=O)N[C@@H](CCCNC(=N)N)C(=O)N[C@@H](CCCNC(=N)N)C(=O)N[C@@H](CO)C(=O)O)C(C)C	–	–	zebrafish embryos 28 hpf, E3 medium	1 h	acute toxic concentration	25 µM
COc1ccccc1C(NS(=O)(=O)c1cc2ccc(O)nc2cc1Cl)C(=O)N(CC(=O)NCCn1cc(COCCOCCOCCNc2cccc3c2C(=O)N(C2CCC(=O)NC2=O)C3=O)nn1)Cc1cccs1 (mixture of isomers)	–	fast-gradient HPLC	–	pH 7.4	logD	2.5
Cc1ccc(OCCN(C)C)cc1C(=O)N[C@H](C)c1cc(-c2ccco2)nc2ccccc12	Vero E6	–	–	31.25 µM	viability	27.1% and 35%
CC(C)=CCC/C(C)=C\CCn1cc(CC(C)(P(=O)(O)O)P(=O)(O)O)nn1	–	PAMPA	phosphate buffer	5 µg/mL, 5 h, room temperature	Papp	0.054 ± 0.006 ×10⁻⁶ cm/s
CC[C@H](C)[C@H](NC(=O)[C@H](CCCCN)NC(=O)CNC(=O)[C@H](CC(C)C)NC(=O)[C@H](Cc1ccccc1)NC(=O)[C@H](CCCCN)NC(=O)[C@H](CO)NC(=O)[C@H](Cc1ccccc1)NC(=O)[C@H](Cc1c[nH]c2ccccc12)NC(=O)[C@H](CCC(N)=O)NC(=O)[C@@H](NC(=O)[C@H](Cc1ccccc1)NC(=O)CCCCCNC(=O)CN1CCN(CC(=O)O)CCN(CC(=O)O)CCN(CC(=O)O)CC1)C(C)C)C(=O)N[C@@H](CCC(=O)O)C(=O)N1CCC[C@H]1C(=O)N[C@@H](CC(=O)O)C(=O)N[C@H](C(=O)N[C@@H](CO)C(=O)N[C@@H](CCC(N)=O)C(=O)N[C@H](C(=O)N[C@@H](CCC(N)=O)C(=O)N[C@@H](CC(=O)O)C(=O)N1CCC[C@H]1C(=O)N[C@@H](CC(N)=O)C(=O)N[C@@H](CC(=O)O)C(=O)N[C@@H](CCC(N)=O)C(=O)N[C@@H](Cc1ccc(O)cc1)C(=O)N[C@@H](CCC(=O)O)C(=O)N1CCC[C@H]1C(=O)N[C@@H](Cc1ccccc1)C(=O)O)C(C)C)C(C)C [copper-64 labelled]	–	dynamic PET	mouse both sexes, CT26 tumour, untreated, tumour	intravenous, 100 µCi/mouse, 170 s	SUVmean	1.19 SUV
CC(C)C[C@H](NC(=O)[C@H](C)NC(=O)[C@H](Cc1cn(CCc2ccc(O)c(C=O)c2)nn1)NC(=O)[C@H](Cc1ccccc1)NC(=O)CCNC(=S)Nc1ccc2c(c1)C(=O)OC21c2ccc(O)cc2Oc2cc(O)ccc21)C(=O)N[C@@H](CC(=O)O)C(=O)N[C@@H](Cc1c[nH]c2ccccc12)C(=O)N[C@@H](CO)C(=O)N[C@@H](Cc1c[nH]c2ccccc12)C(=O)N[C@@H](CC(C)C)C(=O)N[C@@H](CCC(N)=O)C(=O)N[C@H](C(=O)N[C@@H](CCC(=O)O)C(N)=O)[C@@H](C)O	–	dynamic light scattering	PBS/DMSO	10 nM	hydrodynamic diameter	486 ± 43.3 nm
CC(C)[C@H](NC(=O)[C@@H](NC(=O)[C@H](CCCNC(=N)N)NC(=O)[C@H](CCCNC(=N)N)NC(=O)[C@H](CCCNC(=N)N)NC(=O)[C@H](CCC(N)=O)NC(=O)[C@H](CCCNC(=N)N)NC(=O)[C@H](CCCNC(=N)N)NC(=O)[C@H](CCCCN)NC(=O)[C@H](CCCCN)NC(=O)[C@H](CCCNC(=N)N)NC(=O)CN)[C@@H](C)O)C(=O)N[C@H](C(=O)N[C@@H](CO)C(=O)N1CCC[C@H]1C(=O)O)[C@@H](C)O	–	–	ICR mice, male, spleen	intranasal, 20 mg/kg daily, 4 weeks	organ weight	0.088 ± 0.024 g

Some of these lines once more:
Compound	tested on	test	system	conditions	quantity	value
CCCCCCCCCCCCCCCC(=O)N[C@@H](CCC(=O)NCCOCCOCCC(=O)NCCOCCOCCC(=O)NCCCC[C@H](NC(=O)[C@H](CC(=O)O)NC(=O)[C@H](CC(C)C)NC(=O)[C@H](Cc1ccc(O)cc1)NC(=O)[C@H](CCCCN)NC(=O)[C@H](CO)NC(=O)[C@H](Cc1ccc(O)cc1)NC(=O)[C@H](CC(=O)O)NC(=O)[C@H](CO)NC(=O)[C@@H](NC(=O)[C@H](Cc1ccccc1)NC(=O)[C@@H](NC(=O)CNC(=O)[C@H](CCC(N)=O)NC(=O)[C@@H](CO)NC(=O)[C@@H](N)Cc1c[nH]cn1)[C@@H](C)O)[C@@H](C)O)C(=O)N[C@@H](CCCNC(=N)N)C(=O)N[C@@H](CCCNC(=N)N)C(=O)N[C@@H](C)C(=O)N[C@@H](CCC(N)=O)C(=O)N[C@@H](CC(=O)O)C(=O)N[C@@H](Cc1ccccc1)C(=O)N[C@H](C(=O)N[C@@H](CCC(N)=O)C(=O)N[C@@H](Cc1c[nH]c2ccccc12)C(=O)N[C@@H](CC(C)C)C(=O)N[C@@H](CC(C)C)C(=O)N[C@@H](CC(N)=O)C(=O)N[C@H](C(=O)NCC(=O)NCC(=O)N1CCC[C@H]1C(=O)N[C@@H](CO)C(=O)N[C@@H](CO)C(=O)NCC(=O)N[C@@H](C)C(=O)N1CCC[C@H]1C(=O)N1CCC[C@H]1C(=O)N1CCC[C@H]1C(=O)N[C@@H](CO)C(N)=O)[C@@H](C)O)C(C)C)C(=O)O	–	–	rhesus monkey, plasma	intravenous, 15.3 µg/kg, single dose	AUC(0-inf)	290 ng·h/mL
CCc1nn(C)c2nc(-c3ccc(C(=O)O)cc3)nc(NCc3ccccc3)c12	–	–	male CD-1 mouse, plasma	intravenous, 1 mg/kg, 30 min	concentration	336 ng/mL
